# Measurements from different studies.
# Compare with care: the assays were run in different laboratories. ± gives the spread as reported.
Structure (SMILES),test,test system,conditions,how to read,endpoint,value
CC(C)[C@H](NC(=O)[C@@H]1CCCN1C(=O)[C@H](CCCNC(=N)N)NC(=O)[C@H](CS)NC(=O)[C@H](Cc1c[nH]c2ccccc12)NC(=O)[C@H](CCCNC(=N)N)NC(=O)[C@@H](Cc1ccccc1)NC(=O)[C@H](Cc1c[nH]cn1)NC(=O)[C@H](CCC(=O)O)NC(=O)[C@H](CS)NC(=O)[C@H](CS)NC(=O)[C@H](CCCCN)NC(=O)[C@@H]1CC(=O)N[C@@H](CCCNC(=N)N)C(=O)N[C@@H]([C@@H](C)O)C(=O)N[C@@H](CC(=O)O)C(=O)N[C@H](Cc2ccc(O)cc2)C(=O)N1)C(N)=O [technetium-99m labelled],,"C57 mouse, female, B16/F1 melanoma, heart","intravenous, 2 h, together with: NDP-MSH 10 µg co-injected",,tissue uptake,0.42 ± 0.26 %ID/g
COc1ccc(S(=O)(=O)Nc2nc(-c3cccc([N+](=O)[O-])c3)c(CN3CCCCC3)s2)cc1OC,,"wild-type mouse, muscle","oral, 300 mg/kg, 5 h",,tissue concentration,1600 nM
CC(C)[C@H](NC(=O)[C@@H]1CCCN1C(=O)[C@H](CCCNC(=N)N)NC(=O)[C@H](CS)NC(=O)[C@H](Cc1c[nH]c2ccccc12)NC(=O)[C@H](CCCNC(=N)N)NC(=O)[C@@H](Cc1ccccc1)NC(=O)[C@H](Cc1c[nH]cn1)NC(=O)[C@H](CCC(=O)O)NC(=O)[C@H](CS)NC(=O)[C@H](CS)NC(=O)[C@H](CCCCN)NC(=O)[C@@H]1CC(=O)N[C@@H](CCCNC(=N)N)C(=O)N[C@@H](C(C)C)C(=O)N[C@@H](CC(=O)O)C(=O)N[C@H](Cc2ccc(O)cc2)C(=O)N1)C(N)=O [technetium-99m labelled],,"C57 mouse, female, B16/F1 melanoma, lung","intravenous, 2 h, together with: NDP-MSH 10 µg co-injected",,tissue uptake,0.83 ± 0.24 %ID/g
COc1ccc(-c2cc(=O)c3c(OC)c(OC)c(OC)cc3o2)cc1OC,,"C57BL/6 mouse, male, colon","oral, 1% w/w in diet, 6 weeks, orange peel extract diet",relative to: content in orange peel,tissue to peel content ratio,0.254%
COC(=O)C[C@](O)(CCCC(C)(C)O)C(=O)O[C@@H]1C(OC)=C[C@]23CCCN2CCc2cc4c(cc2[C@H]13)OCO4,,"CD1 mouse, brain","oral, 1 mg/kg, 8 h, below quantification limit 1.00 ng/mL",,tissue concentration,not detected
COc1ccc(-c2cc(=O)c3cc(OC)c(OC)c(OC)c3o2)cc1OC,,"C57BL/6 mouse, male, plasma","oral, 1% w/w in diet, 6 weeks, orange peel extract diet",relative to: content in orange peel,tissue to peel content ratio,0.03%
CCCC[C@@H]1NC(=O)[C@@H](NC(=O)[C@H](CCC(=O)O)NC(=O)CNC(=O)CN2CCN(CC(=O)O)CCN(CC(=O)O)CCN(CC(=O)O)CC2)CCCCNC(=O)C[C@@H](C(N)=O)NC(=O)[C@H](C(C)C)NC(=O)[C@@H]2CCCN2C(=O)[C@H](CCCNC(=N)N)NC(=O)CNC(=O)[C@H](Cc2c[nH]c3ccccc23)NC(=O)[C@H](CCCNC(=N)N)NC(=O)[C@@H](Cc2ccccc2)NC(=O)[C@H](Cc2c[nH]cn2)NC(=O)[C@H](CCC(=O)O)NC1=O [indium-111 labelled],,"C57 mouse, B16/F10 lung metastasis, lung","intravenous, 0.037 MBq, 2 h",,tissue uptake,2 ± 0.74 %ID/g
COc1ccc(-c2oc3c(OC)c(OC)cc(O)c3c(=O)c2OC)cc1OC,,"C57BL/6 mouse, male, colon","oral, 1% w/w in diet, 6 weeks, orange peel extract diet",relative to: content in orange peel,tissue to peel content ratio,2.13%
CC(=O)N[C@H](CCNC(=O)c1cc(NC(=O)c2cc(NC(=O)c3cc(NC(=O)c4nccn4C)cn3C)cn2C)cn1C)C(=O)Nc1cn(C)c(C(=O)Nc2cc(C(=O)Nc3cc(C(=O)Nc4cc(C(=O)NCCCN(C)CCCN[14C](=O)c5cccc([14C](=O)O)c5)n(C)c4)n(C)c3)n(C)c2)n1,radiolabel counting,"NSG male mouse, LNCaP xenograft, kidney","intraperitoneal, 20 nmol per animal, 24 h",,tissue concentration,0.25 mg/kg

# Some of these lines once more:
Structure (SMILES),test,test system,conditions,how to read,endpoint,value
COc1ccc(S(=O)(=O)Nc2nc(-c3cccc([N+](=O)[O-])c3)c(CN3CCCCC3)s2)cc1OC,,"wild-type mouse, muscle","oral, 300 mg/kg, 5 h",,tissue concentration,1600 nM
